Experimental data gathered from unrelated publications.
Every numbered part comes from another study and shows a few of its results, in no order.
Chain of UniProt Q96L34 (whole entry, looked up): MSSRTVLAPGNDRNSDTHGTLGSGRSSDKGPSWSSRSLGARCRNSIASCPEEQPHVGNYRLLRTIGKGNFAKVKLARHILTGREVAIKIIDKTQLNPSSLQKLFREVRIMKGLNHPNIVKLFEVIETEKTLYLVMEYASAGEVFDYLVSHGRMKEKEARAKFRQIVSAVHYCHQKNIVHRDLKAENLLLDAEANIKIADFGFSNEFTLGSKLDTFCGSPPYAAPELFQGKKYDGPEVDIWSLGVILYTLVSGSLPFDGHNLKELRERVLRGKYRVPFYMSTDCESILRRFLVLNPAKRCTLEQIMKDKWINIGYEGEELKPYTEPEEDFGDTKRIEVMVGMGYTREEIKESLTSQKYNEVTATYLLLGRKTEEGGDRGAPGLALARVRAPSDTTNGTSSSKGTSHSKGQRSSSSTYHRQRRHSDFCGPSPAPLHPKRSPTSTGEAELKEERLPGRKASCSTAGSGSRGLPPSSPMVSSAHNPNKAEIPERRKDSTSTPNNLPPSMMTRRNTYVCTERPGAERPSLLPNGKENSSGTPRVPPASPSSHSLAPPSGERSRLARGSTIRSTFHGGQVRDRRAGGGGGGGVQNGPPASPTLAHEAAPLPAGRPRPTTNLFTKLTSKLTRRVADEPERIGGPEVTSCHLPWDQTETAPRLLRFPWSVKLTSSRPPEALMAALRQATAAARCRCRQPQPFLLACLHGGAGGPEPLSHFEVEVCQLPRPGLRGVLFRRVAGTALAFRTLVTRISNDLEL
Chain of UniProt Q15349 (whole entry, looked up): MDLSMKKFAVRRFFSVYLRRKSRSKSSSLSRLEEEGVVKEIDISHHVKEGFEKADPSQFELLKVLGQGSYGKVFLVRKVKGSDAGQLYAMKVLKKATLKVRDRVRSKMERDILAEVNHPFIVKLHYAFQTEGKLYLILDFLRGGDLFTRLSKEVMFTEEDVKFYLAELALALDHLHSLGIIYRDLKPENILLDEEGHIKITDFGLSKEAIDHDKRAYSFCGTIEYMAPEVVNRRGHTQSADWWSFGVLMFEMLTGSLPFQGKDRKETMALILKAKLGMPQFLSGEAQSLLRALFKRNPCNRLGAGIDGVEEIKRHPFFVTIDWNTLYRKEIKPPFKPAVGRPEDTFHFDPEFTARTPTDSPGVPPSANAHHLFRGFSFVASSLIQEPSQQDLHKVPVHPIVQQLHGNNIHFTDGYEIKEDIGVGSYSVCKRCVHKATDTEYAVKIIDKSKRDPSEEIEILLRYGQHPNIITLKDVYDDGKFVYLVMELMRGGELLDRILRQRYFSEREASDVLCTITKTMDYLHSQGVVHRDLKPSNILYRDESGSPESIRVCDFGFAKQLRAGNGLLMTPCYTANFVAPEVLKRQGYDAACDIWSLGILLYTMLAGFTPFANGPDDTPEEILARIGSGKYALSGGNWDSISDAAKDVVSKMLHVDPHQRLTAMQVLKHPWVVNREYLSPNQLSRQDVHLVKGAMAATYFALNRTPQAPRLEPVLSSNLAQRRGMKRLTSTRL
Chain of UniProt P42336 (whole entry, unmodified, looked up): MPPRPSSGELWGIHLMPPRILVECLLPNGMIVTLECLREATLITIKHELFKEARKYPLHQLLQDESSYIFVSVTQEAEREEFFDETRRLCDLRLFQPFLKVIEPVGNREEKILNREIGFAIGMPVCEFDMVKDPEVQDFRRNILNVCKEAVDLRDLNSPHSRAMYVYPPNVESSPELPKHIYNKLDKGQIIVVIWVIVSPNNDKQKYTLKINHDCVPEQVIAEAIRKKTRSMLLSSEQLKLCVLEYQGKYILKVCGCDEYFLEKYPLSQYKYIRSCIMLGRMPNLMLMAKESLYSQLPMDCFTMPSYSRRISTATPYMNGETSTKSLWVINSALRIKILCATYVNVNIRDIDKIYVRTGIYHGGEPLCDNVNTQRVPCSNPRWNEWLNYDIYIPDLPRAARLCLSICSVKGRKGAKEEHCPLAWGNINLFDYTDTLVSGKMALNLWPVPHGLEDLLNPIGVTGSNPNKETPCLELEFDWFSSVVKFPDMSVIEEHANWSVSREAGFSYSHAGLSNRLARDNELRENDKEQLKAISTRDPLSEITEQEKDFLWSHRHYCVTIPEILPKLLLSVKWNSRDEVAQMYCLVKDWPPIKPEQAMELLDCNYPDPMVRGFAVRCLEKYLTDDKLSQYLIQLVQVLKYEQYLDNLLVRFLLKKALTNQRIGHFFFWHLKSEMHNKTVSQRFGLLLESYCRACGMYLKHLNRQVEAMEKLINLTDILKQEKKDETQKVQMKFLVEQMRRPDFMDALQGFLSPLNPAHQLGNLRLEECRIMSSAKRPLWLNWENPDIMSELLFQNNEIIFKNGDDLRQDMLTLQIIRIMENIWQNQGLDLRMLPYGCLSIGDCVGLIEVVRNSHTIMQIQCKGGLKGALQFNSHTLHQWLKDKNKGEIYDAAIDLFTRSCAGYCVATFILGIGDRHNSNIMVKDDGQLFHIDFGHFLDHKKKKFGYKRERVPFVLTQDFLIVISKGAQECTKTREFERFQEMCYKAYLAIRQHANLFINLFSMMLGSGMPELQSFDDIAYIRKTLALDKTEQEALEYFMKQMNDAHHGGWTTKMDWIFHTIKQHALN
Chain of UniProt P30291 (whole entry, looked up): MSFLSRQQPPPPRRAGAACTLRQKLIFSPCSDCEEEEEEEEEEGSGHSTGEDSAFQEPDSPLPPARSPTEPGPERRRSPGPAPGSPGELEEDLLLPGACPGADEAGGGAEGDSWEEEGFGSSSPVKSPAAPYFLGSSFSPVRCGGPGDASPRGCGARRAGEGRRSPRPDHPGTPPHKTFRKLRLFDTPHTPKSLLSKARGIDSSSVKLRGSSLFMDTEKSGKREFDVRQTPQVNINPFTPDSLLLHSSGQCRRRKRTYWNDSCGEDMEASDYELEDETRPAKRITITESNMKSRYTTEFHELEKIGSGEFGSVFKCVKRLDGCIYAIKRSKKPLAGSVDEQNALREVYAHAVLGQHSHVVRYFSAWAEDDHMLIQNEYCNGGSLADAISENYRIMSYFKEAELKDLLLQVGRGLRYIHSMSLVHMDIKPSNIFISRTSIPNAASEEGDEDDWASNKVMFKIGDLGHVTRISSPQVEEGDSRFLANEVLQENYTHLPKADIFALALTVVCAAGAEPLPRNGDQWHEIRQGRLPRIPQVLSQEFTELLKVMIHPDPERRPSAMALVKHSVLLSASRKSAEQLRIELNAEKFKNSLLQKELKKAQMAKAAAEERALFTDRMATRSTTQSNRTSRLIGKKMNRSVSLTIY
Chain of UniProt Q13873 (whole entry, looked up): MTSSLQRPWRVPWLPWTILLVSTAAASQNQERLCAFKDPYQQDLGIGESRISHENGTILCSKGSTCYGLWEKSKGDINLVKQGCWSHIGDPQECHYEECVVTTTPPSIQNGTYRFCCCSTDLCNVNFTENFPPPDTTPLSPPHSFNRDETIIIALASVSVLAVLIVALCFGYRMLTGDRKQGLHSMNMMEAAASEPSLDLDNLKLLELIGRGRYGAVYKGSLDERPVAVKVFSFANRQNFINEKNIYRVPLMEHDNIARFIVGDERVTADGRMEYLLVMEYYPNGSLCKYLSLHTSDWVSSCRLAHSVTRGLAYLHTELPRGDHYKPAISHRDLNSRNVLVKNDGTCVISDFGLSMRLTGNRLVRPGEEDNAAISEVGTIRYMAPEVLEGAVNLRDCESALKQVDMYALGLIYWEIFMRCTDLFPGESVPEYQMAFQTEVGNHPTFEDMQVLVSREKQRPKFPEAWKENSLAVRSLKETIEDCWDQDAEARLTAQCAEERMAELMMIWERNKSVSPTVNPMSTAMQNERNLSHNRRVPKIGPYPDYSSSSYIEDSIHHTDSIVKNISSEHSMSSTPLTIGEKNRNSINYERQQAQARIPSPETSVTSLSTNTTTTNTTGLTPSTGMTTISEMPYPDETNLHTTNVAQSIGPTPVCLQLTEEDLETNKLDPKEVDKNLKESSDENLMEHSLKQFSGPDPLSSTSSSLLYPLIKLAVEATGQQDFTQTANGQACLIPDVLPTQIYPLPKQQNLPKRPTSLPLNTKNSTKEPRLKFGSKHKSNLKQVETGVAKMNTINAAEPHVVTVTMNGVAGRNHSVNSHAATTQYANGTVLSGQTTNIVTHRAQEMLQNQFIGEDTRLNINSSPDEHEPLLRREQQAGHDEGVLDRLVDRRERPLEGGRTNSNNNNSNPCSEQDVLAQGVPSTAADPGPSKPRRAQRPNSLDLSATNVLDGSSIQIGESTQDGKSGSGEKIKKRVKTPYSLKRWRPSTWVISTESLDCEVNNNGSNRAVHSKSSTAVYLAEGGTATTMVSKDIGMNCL
Chain of UniProt Q09013 (whole entry, looked up): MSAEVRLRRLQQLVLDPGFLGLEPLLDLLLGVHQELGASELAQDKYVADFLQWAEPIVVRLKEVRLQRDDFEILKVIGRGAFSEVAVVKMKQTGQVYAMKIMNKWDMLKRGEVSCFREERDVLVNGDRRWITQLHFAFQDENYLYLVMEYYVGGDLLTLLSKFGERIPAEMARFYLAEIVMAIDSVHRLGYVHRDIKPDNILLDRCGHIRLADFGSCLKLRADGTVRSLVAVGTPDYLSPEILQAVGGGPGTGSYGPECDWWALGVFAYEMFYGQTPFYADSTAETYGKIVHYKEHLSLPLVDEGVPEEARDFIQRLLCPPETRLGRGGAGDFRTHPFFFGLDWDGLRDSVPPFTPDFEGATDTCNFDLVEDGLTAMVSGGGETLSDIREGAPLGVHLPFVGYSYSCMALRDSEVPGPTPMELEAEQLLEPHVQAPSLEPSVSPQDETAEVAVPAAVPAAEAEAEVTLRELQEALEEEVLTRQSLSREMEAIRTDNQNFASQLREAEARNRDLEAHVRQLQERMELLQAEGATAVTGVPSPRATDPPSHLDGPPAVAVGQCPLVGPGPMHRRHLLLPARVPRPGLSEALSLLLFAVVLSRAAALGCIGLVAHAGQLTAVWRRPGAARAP

Sample 1
Target: Sal-like protein 4, full length isoform B (SALL4, Homo sapiens, UniProt Q9UJQ4-2, residues 1-616)
Technique: universal PBM
Molecule type: double-stranded DNA, one strand shown
Medium: in vitro
Concentration: not given
Setting: 8-mer, flanks averaged, mean of replicates
Direction: higher = stronger binding
Construct (chain): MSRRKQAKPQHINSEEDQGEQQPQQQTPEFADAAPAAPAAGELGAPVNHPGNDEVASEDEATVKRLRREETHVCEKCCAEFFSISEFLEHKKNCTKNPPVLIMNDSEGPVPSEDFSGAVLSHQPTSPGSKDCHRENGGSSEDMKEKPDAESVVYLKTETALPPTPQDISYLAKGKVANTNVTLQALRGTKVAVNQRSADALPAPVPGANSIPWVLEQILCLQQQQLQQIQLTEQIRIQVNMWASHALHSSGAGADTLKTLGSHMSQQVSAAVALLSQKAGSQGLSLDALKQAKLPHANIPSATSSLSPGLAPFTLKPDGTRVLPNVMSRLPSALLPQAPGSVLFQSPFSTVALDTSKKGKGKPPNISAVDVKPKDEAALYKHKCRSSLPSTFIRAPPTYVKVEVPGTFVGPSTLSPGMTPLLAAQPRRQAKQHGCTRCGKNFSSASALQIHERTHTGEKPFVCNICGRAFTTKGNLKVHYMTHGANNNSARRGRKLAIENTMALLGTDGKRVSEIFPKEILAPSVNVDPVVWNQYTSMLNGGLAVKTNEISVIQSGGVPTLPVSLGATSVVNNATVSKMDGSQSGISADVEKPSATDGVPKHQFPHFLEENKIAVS
With `CGAAGTTC` the E-score was -0.0165.
With `GTTTATTA` the E-score was 0.396.
`AACTAGGT` gave an E-score of -0.0259.
The E-score of `GGCACACC` is reported as -0.328.
`AAACAGGA` gave an E-score of 0.0906.
`CTTCATGC` has an E-score of -0.107.
`ACAGCCAC` has an E-score of -0.11.
With `CGGTAAAC` the E-score was -0.00388.

Sample 2
Target: Prothrombin, mature alpha-thrombin (F2, Homo sapiens, UniProt P00734)
Technique: aptamer microarray, sandwich
Molecule type: DNA with 2'F-ANA
Medium: in vitro
Concentration: 200 nM
Setting: whole 15-mer aptamer, many near background
Added: Cy3 exosite-II aptamer, 400 nM
Direction: higher = stronger binding
Oligonucleotide: GGTTGGTGTGGTTGG
`2'F-ANA at 3 5 6 10 11 14`: “mean fluorescence intensity” 50.1 a.u.
`2'F-ANA at 1 2 3 5 8 14` — result for “mean fluorescence intensity”: 127 a.u.
`2'F-ANA at 1 2 6 7 11 13 14 15`: “mean fluorescence intensity” 52.6 a.u.
Under “mean fluorescence intensity”, `2'F-ANA at 1 3 9 10 12 13 14` is recorded as 62.9 a.u.
`2'F-ANA at 1 3 4 5 8 9 10 11 12 15`: “mean fluorescence intensity” 50.2 a.u.
Under “mean fluorescence intensity”, `2'F-ANA at 1 2 3 4 5 7 8 9 10 11 12 13 14` is recorded as 54.6 a.u.
For `2'F-ANA at 4 10 12 14`, “mean fluorescence intensity” read 60.4 a.u.
`2'F-ANA at 2 8 9 10 11 12`: “mean fluorescence intensity” 149 a.u.

Sample 3
SMILES: Cc1cc(NC(=O)c2cccc(S(F)(F)(F)(F)F)c2)cc(-n2ccn3nc(-c4cccnc4)cc23)c1
Read-out: cell-free assay
Technique: competition with immobilised ligand
Concentration: 1 µM
It gave 84.8% for remaining binding (MARK4 (Homo sapiens, UniProt Q96L34)).
Ribosomal protein S6 kinase alpha-2, N-terminal kinase domain (RPS6KA2, Homo sapiens, UniProt Q15349) — remaining binding: 84%.
For PIK3CA (Homo sapiens, UniProt P42336, E542K): remaining binding read 75.2%.
The remaining binding was 100% (MAP2K1 (Homo sapiens, UniProt Q02750)).
It gave 100% for remaining binding (EGFR (Homo sapiens, UniProt P00533, del746-750)).
The remaining binding was 100% (MET (Homo sapiens, UniProt P08581, Y1235D)).
The remaining binding was 100% (Tyrosine-protein kinase ABL1, non-phosphorylated (ABL1, Homo sapiens, UniProt P00519, F317L)).
The remaining binding was 95.1% (EGFR (Homo sapiens, UniProt P00533, del747-750/T751S)).
The remaining binding was 64.2% (CDK13 (Homo sapiens, UniProt Q14004)).
It gave 100% for remaining binding (DMPK (Homo sapiens, UniProt Q09013)).
It gave 99.9% for remaining binding (FLT3 (Homo sapiens, UniProt P36888, D835H)).
MAP3K4 (Homo sapiens, UniProt Q9Y6R4) — remaining binding: 53.6%.
WEE1 (Homo sapiens, UniProt P30291) — remaining binding: 100%.
It gave 59.3% for remaining binding (BMPR2 (Homo sapiens, UniProt Q13873)).

Sample 4
Host: mouse
Medium: microsomes or S9
Concentration: 2 µM
Time: 0.5 h
The remaining compound of `CN1Cc2ccccc2N(CCN2CCC(c3ccc(Cl)cc3C(=O)NCCN3CCN(C(=O)OC(C)(C)C)CC3)CC2)C1=O` is reported as 2.93%.
For `CC1(C)CC(=O)c2c(O)cc(OCC(=O)c3ccc(N4CCCC4)cc3)cc2O1`, the remaining compound was 2.05%.
`CN(C)S(=O)(=O)c1ccc(COc2ccc(-n3ccnc3)cc2)o1` gave a remaining compound of 70.8%.
`Cn1ccnc1CC1CCN(c2cnccn2)CC1` gave a remaining compound of 33.8%.
